Assay results collected from several papers.
A part holds a random share of what one study measured. Positions count from the first letter of the parent shown.
UniProt Q969T4, sequence (whole entry, looked up): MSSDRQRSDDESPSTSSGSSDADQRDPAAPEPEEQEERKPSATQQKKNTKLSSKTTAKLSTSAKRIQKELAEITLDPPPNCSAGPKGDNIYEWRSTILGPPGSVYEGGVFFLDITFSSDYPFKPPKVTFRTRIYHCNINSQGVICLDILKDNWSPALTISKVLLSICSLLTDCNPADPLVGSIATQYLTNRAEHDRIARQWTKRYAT
UniProt Q7Z7E8, sequence (whole entry, looked up): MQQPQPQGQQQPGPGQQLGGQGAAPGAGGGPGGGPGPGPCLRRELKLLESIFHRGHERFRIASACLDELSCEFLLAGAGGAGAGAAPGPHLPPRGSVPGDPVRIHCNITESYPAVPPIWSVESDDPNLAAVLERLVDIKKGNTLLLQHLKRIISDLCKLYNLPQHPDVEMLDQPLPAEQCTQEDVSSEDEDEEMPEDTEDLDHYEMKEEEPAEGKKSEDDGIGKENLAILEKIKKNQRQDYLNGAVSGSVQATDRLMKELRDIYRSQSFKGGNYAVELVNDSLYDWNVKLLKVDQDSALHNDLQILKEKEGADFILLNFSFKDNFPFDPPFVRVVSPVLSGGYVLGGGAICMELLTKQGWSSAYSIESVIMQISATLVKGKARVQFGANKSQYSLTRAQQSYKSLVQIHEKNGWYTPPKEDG
UniProt Q9Y2X8, sequence (whole entry, looked up): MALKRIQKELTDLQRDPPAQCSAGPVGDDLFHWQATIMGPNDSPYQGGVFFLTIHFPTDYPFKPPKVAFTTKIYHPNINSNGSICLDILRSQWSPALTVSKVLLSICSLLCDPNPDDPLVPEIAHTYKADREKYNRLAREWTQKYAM
UniProt Q9C0C9, sequence (whole entry, looked up): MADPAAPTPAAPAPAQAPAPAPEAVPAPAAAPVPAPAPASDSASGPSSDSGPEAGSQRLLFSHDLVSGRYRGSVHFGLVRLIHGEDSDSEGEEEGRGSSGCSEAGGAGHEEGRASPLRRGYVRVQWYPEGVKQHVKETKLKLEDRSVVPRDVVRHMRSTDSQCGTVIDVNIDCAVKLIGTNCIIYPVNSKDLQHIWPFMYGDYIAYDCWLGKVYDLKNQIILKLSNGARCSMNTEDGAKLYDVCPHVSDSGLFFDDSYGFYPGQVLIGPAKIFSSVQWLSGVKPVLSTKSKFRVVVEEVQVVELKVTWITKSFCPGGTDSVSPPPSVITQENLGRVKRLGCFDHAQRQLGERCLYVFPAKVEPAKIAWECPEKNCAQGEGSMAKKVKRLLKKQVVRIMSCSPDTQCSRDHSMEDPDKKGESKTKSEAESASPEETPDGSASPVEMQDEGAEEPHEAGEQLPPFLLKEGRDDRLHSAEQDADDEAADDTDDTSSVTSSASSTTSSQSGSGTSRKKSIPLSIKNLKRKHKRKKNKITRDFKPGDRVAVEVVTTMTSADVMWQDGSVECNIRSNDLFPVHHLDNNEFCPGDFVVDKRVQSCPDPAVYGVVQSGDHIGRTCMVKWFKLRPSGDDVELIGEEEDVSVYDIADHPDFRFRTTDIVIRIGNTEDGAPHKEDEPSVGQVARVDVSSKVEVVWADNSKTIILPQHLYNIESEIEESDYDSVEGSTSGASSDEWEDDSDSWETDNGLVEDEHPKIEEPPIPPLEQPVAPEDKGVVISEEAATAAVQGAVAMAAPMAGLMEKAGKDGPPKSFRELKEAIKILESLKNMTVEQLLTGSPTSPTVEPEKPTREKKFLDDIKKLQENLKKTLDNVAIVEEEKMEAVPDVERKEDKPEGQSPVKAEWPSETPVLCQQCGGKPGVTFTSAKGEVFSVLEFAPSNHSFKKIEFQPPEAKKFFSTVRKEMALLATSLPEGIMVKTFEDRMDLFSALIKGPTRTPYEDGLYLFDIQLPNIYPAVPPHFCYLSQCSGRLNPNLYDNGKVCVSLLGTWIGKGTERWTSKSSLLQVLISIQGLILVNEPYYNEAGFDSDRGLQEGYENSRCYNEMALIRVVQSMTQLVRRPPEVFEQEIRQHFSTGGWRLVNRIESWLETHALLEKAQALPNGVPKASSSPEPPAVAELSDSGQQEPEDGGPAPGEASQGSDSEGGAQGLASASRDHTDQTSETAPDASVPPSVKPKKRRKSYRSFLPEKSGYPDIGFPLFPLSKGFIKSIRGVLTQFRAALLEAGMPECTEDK
UniProt P61081, sequence (whole entry, looked up): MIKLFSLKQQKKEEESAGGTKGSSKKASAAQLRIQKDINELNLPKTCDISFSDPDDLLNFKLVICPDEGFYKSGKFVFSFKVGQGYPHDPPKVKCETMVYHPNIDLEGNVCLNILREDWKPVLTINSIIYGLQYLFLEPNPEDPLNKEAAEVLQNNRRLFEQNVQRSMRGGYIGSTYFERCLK
UniProt O00762, sequence (whole entry, looked up): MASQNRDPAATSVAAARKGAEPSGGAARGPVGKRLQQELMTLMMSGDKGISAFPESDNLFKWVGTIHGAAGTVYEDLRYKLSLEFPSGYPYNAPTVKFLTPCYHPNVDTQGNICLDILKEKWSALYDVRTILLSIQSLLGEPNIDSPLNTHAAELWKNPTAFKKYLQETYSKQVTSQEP
UniProt Q712K3, sequence (whole entry, looked up): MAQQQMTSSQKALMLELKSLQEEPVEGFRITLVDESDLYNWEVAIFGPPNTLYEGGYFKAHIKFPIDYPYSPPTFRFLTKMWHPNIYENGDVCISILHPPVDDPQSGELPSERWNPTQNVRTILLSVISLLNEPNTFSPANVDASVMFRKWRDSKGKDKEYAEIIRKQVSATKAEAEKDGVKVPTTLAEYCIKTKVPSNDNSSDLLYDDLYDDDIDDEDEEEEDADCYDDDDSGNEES
UniProt P63146, sequence (whole entry, looked up): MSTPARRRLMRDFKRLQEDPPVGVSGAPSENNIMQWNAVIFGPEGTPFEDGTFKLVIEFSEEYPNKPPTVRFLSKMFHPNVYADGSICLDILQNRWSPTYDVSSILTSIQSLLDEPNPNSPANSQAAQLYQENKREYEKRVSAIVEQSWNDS
UniProt P62837, sequence (whole entry, looked up): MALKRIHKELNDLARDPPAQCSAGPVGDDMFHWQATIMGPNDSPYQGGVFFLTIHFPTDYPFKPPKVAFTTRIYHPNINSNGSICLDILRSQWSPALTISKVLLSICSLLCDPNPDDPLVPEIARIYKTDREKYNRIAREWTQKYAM

Set 1 — method: RNA Bind-n-Seq; molecule type: RNA; sample: in vitro; concentration: not given; baseline: input RNA pool; reading: higher = stronger binding
Target: RING finger protein unkempt homolog, zinc fingers 1-6, GST-SBP tag (UNK, Homo sapiens, UniProt Q9C0B0, residues 30-357)
UniProt Q9C0B0, sequence (30-357, looked up): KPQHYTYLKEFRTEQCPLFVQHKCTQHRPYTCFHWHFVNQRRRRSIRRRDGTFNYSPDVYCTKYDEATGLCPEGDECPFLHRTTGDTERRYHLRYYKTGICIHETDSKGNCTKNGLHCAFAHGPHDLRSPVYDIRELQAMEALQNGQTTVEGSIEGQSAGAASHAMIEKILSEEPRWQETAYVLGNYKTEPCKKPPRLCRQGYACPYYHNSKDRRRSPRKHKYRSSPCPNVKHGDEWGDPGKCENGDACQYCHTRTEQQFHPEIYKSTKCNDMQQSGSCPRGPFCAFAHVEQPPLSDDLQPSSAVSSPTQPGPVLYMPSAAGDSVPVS
Notes: RNA with constant flanks, human-mouse chimeric sites, ends assumed
Shared flanks, not repeated: GGGAGUUCUACAGUCCGACGAUC … CAACAGAGGAUUGAGCAUCA
| Oligonucleotide | bound/input enrichment [ratio] |
| --- | --- |
| GAUAAGAAAAGCUUGUUGGAGACCCGCUUGCACAUCACUGGUAGAGAACUGAGGUCCCAAAUAGCUGAAACUUUCGGAUUUCAAGAAAAUUACAUCAAGAUCGUAAUAAAUAAGAAACAG | 0.327 |
| AUAUUUCAUAUUGCAAAGAUGUUUACAAGUAUUUUAAUUUAAGUUCAGUGAACUUUUUUGUAGCUGGGUUAAAUCUUUUUAUUUUUAUAUGGCCUUAAUGGCAAAGACACUGUAUUAUUU | 1.68 |
| AGUUCCAAACCACCAUCAGAAAUGAAGAUGAGAUUACCCAGACGAGCCAAAACAGCUGCGCUACAGAAAAGUAAACUUUAACCUUGCGAGUUCCUUAAUGAAGAUACAAGUUAAGAGAGC | 0.227 |
| AUAUUUCAUAUUGCAAAGAUGUUUACAAGUAUUUUAAUUUAAGUUCAGUGAACUUUUUUGUAGCUGGGUUAAAUCUUUUUAUUUUAGGUAUGGCCUUUGGCAAAGAACACUGUAUUAUUU | 1.02 |
| UCUUAACUUAUUCAUUUAACUUAUUUUUAGCACUUAGUAAAUAUUGUUAGUCUUAGACAAUAGCUCACAUUUUUUGAGAAGCAUGCCCUCCCUGUCCAUUGGGCCCAUAACAUGACCCAG | 501 |
| UAAAUUAGCCAGCACCAUUUCUGUUUCGCCCUGAGCUGCGGAAAGCCAGAAGAUUUUAUCUAGCUUAUACAAGGCUGCUGGUGUUCCCUCUUUUUUUCCACGAGGGUGUUUUUGGCUGCA | 0.723 |
| AACAGAUUUCUCAAGCACAUUCCAAGCGAGAAUGCUGGGGUGAUCAUUGUUGCCCAUGUGCCUUCUGACUGAGCUUUAAUGCUGUUCCAUGUUACAUCUUUCCUUCAUUGCAUAUUUGUU | 0.184 |
| CUGUGACCACAAGAUCCUACCUGAGUGGCAGCUGAAGUUGACUCCCUCUCCUUGCCUGAACCCCCCCCUUUUGUUCCCCCAUCCCCCAGUGUCGGCUAUUCUCUGGUCUCUGCACGGUUC | 1.92 |
| GUAGCUGGGACUACAGAAAUGCUGGUAAUUUCAGUCACUUGCUGAUGACUUCUGAUGACCUAGCAAAUGUUGGCAUUGUUGACUGCUGAGAAGAUACUUCUGAGGACCCACGUCUAAGGU | 0.117 |
| AGAGCCCAGGACGUUGAUGCUACAAACCCAAAUUACGAAAUUAUGUGUAUGAUCAGAGACUUCAGAGGGAGCUUGGAUUACAGACCCCUAACAACAGCAGAUCCUAUUGAUGAACAUAGG | 0.383 |
| UUUCUACUGCAGCAAACGAUGCUAAGAGUGAAGGAUCCUAAGAAGUCCCUGGAUUUUUAUACGAGGGUUCUUGGACUGACCCUCCUGCAGAAGCUUGACUUCCCUGCUAUGAAGUUUUCG | 0.185 |

Set 2 — Sequence: B1 (RNF11 RING domain); method: yeast two-hybrid; sample: yeast; notes: mostly zero background; baseline: not given; reading: higher = stronger interaction
B1: RNF11 RING domain (UniProt Q9Y3C5); chain RDGSEKKIRECVICMMDFVYGDPIRFLPCMHIYHLDCIDDWLMRSFTCPSCMEPVDAALLSS
| target | lacZ reporter activity |
| --- | --- |
| UBE2E3 UBC core domain (UniProt Q969T4) | 0 |
| UBE2M UBC core domain (UniProt P61081) | 0 |
| UBE2R2 UBC core domain (UniProt Q712K3) | 0 |
| UBE2O UBC core domain (UniProt Q9C0C9) | 0 |
| UBE2I UBC core domain (UniProt P63279) | 0 |
| UBE2C UBC core domain (UniProt O00762) | 0 |
| UBE2D2 UBC core domain (UniProt P62837) | 17900 |
| UBE2D4 UBC core domain (UniProt Q9Y2X8) | 17100 |
| UBE2Q1 UBC core domain (UniProt Q7Z7E8) | 0 |
| UBE2B UBC core domain (UniProt P63146) | 0 |

Set 3 — method: RNA Bind-n-Seq; molecule type: RNA; sample: in vitro; concentration: 20 nM; notes: 6-mer, flanks averaged, single round; added: 150 mM KCl; baseline: input library; reading: higher = stronger binding
Target: TAR DNA-binding protein 43, full length, His tag (TARDBP, Homo sapiens, UniProt Q13148, residues 1-414)
| Oligonucleotide | 6-mer enrichment (R) |
| --- | --- |
| CGAUAU | 0.593 |
| UGCCCA | 0.675 |
| CAUCUG | 0.612 |
| UUAUAG | 0.643 |
| CCGCAU | 0.661 |
| UAUGUA | 0.824 |
| GAAGGC | 1.43 |
| UAUGUC | 0.654 |
| AACCAG | 0.743 |
| CGGAUC | 0.764 |
| CCUGAA | 0.655 |
| UUUCCG | 0.613 |
| UUUGAG | 0.883 |
| ACUGCG | 0.927 |
| ACGUGC | 0.841 |

Set 4 — method: universal PBM; molecule type: double-stranded DNA, one strand shown; sample: in vitro; concentration: not given; reading: higher = stronger binding
Target: Sal-like protein 4, full length isoform B (SALL4, Homo sapiens, UniProt Q9UJQ4-2, residues 1-616)
Notes: 8-mer, flanks averaged, mean of replicates
Construct (chain): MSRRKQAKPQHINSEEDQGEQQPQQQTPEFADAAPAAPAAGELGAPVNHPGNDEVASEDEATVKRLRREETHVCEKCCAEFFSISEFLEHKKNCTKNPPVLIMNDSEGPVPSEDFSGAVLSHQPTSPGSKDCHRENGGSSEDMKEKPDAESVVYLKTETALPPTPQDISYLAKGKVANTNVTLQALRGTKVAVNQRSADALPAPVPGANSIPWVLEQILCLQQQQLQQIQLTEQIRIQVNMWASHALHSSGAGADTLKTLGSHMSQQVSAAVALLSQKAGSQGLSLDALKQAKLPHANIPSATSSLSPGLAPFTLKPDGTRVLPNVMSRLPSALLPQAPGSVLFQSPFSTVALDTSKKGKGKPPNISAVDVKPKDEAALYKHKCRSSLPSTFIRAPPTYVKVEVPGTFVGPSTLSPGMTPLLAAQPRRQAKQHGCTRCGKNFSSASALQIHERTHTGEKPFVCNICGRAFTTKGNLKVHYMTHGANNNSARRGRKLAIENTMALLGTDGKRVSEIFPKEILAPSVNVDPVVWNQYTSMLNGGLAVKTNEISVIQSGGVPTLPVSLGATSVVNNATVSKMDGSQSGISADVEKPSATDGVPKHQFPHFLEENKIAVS
| Oligonucleotide | E-score |
| --- | --- |
| CGTGCTGA | 0.0103 |
| AATATCCG | 0.2 |
| ATTCGTCG | -0.0994 |
| CGACATCC | -0.182 |
| ACATCCAT | 0.177 |
| GCGACATA | 0.113 |
| CGGGTACG | -0.267 |
| AAGCAAGT | 0.0821 |
| AAAGAGTG | -0.017 |
| TAATGACA | 0.224 |
| AGTCAGAA | -0.0328 |
| AAGCCTAA | 0.035 |
| AGTTTGGC | -0.0833 |
| ACGATTGG | 0.087 |
| CAGTATCA | 0.0199 |
| CGGACATC | -0.171 |
| CATCTGAC | -0.0868 |
| TCGCCACA | -0.0283 |
| ACGTGCCT | -0.0544 |
| ACCTATCC | -0.0109 |
| GTGAAGTA | 0.102 |
| CACCTTTA | 0.074 |
| AAAGGTAT | 0.162 |
| CGATAGGA | -0.00435 |
| CTTATGCC | 0.0476 |

Set 5 — method: RNAcompete; molecule type: RNA; sample: in vitro; concentration: 20 nM; notes: 7-mer, probes averaged, single round; baseline: mean of 7-mers; reading: higher = stronger binding
Target: PABPC1L2, full length, GST fusion (mouse, UniProt A0ABA7IW68)
Residues (chain): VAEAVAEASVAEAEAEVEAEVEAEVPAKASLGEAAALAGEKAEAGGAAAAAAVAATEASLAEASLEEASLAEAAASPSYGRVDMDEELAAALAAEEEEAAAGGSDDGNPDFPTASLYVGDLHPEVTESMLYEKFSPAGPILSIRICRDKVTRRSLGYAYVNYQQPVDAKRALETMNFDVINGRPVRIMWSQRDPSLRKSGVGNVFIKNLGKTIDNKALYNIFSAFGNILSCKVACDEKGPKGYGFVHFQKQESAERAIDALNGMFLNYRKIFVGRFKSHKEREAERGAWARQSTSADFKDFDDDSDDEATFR
| Oligonucleotide | 7-mer Z-score |
| --- | --- |
| CACGUAA | -0.117 |
| CCGUGCA | -0.0301 |
| CUUUCUU | -0.467 |
| UACUGAU | -0.226 |
| AUAAUGC | 0.0334 |
| AUUCGAU | -0.133 |
| CGAGAUG | 0.0551 |
| AUCUACC | -0.293 |
| GUGUGUA | -0.193 |
| CAGGUGC | 0.0533 |
| UGAGGGU | -0.0283 |
| GGGGAGU | 0.135 |
| CGUGUGA | -0.277 |
| CACCGCG | -0.195 |
| UAAUGGG | 0.066 |
| UAUACAA | 0.289 |
| CUUAUAA | 0.0388 |
| CUGGAAU | -0.101 |
| CAUACCA | -0.115 |
| UGCGUUG | -0.175 |
| UAUUGCC | -0.318 |

Set 6 — target: CCND3, cyclin fold, Cln2 fusion (human); method: yeast growth competition, sequencing; sample: yeast; notes: weak parent motif; baseline: not given; reading: higher = stronger binding
Parent: BRCA2 docking peptide (human); CKKRRALDFLSRL
| Variant | normalised enrichment score |
| --- | --- |
| C1A | 0.0505 |
| K3A | -0.00697 |
| R5K F9L | 0.572 |
| S11A | 0.166 |
| L7A | 0.164 |
| K2A | 0.16 |
| R4A | 0.0759 |

Set 7 — method: aptamer microarray, sandwich; molecule type: DNA with 2'F-ANA; sample: in vitro; concentration: 200 nM; added: Cy3 exosite-II aptamer, 400 nM; reading: higher = stronger binding; oligonucleotide: GGTTGGTGTGGTTGG
Target: Prothrombin, mature alpha-thrombin (F2, Homo sapiens, UniProt P00734)
Notes: whole 15-mer aptamer, many near background
| Modification | mean fluorescence intensity [a.u.] |
| --- | --- |
| 2'F-ANA at 5 6 9 14 15 | 101 |
| 2'F-ANA at 1 5 6 9 10 11 12 14 15 | 166 |
| 2'F-ANA at 1 2 3 4 6 12 13 15 | 276 |
| 2'F-ANA at 1 2 3 7 8 9 12 13 | 374 |
| 2'F-ANA at 1 2 4 5 9 10 11 | 46.5 |
| 2'F-ANA at 1 2 6 8 11 12 15 | 270 |
| 2'F-ANA at 1 4 7 11 12 13 14 15 | 136 |
| 2'F-ANA at 2 3 5 8 9 10 12 15 | 59.5 |
| 2'F-ANA at 2 5 11 12 14 15 | 43.8 |
| 2'F-ANA at 1 2 4 5 8 12 13 | 78.6 |
| 2'F-ANA at 2 3 8 9 11 13 14 15 | 361 |
| 2'F-ANA at 2 4 5 6 7 10 11 12 14 15 | 47.7 |
| 2'F-ANA at 1 3 4 5 6 7 10 13 | 46.6 |
| 2'F-ANA at 2 5 7 9 10 15 | 45 |
| 2'F-ANA at 2 4 6 8 10 12 13 15 | 88.7 |
| 2'F-ANA at 2 3 5 7 8 10 12 14 15 | 94.3 |
| 2'F-ANA at 2 3 5 8 14 15 | 57.9 |
| 2'F-ANA at 4 5 7 8 9 10 12 13 14 15 | 67.9 |
| 2'F-ANA at 1 2 3 7 10 11 12 13 14 15 | 70 |
| 2'F-ANA at 1 2 3 6 8 9 11 12 15 | 322 |
| 2'F-ANA at 1 3 9 10 12 13 | 99.4 |
| 2'F-ANA at 3 4 5 6 8 9 | 123 |
| 2'F-ANA at 2 3 7 10 11 12 13 15 | 458 |
| 2'F-ANA at 3 5 6 7 8 9 10 11 12 15 | 61.7 |
| 2'F-ANA at 1 2 6 8 10 11 14 | 177 |

A few entries again (set 3):
| Oligonucleotide | 6-mer enrichment (R) |
| --- | --- |
| UUAUAG | 0.643 |
| ACUGCG | 0.927 |
| CAUCUG | 0.612 |
| UGCCCA | 0.675 |
| GAAGGC | 1.43 |
| CGGAUC | 0.764 |
| CGAUAU | 0.593 |
| ACGUGC | 0.841 |
| CCGCAU | 0.661 |
| UAUGUA | 0.824 |
| UUUGAG | 0.883 |
| CCUGAA | 0.655 |
| UUUCCG | 0.613 |
| AACCAG | 0.743 |
| UAUGUC | 0.654 |
